Assay results of several laboratories.
Every numbered part comes from another study and shows a few of its results, in no order.

Study 1
Target: RNA binding protein fox-1 homolog 2, RRM domain, GST-SBP tag (RBFOX2, Homo sapiens, UniProt O43251-10, residues 100-194)
Method: RNA Bind-n-Seq
Form: RNA
Matrix: in vitro
Concentration: 365 nM
Notes: natural RNA segment, single round, ends assumed
Relative to: no-protein control
Direction: higher = stronger binding
Shared flanks, not repeated: GGGAGUUCUACAGUCCGACGAUC … UGGAAUUCUCGGGUGCCAA
Target sequence (chain): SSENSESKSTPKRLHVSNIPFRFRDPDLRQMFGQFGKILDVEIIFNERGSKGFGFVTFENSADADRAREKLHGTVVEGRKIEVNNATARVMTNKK
Oligonucleotide	RBNS enrichment (R)
GUAGCAGGAGGAUCUGAACUUUUCCUGGAGAGGAGGUGAUCGGGAUGCCAUUUGGCAGCUUAAGCACAUCCUGCCAGCAGGCUUUAAGUGGCUGUUCUAGGCAUAGCCCU	0.356
AAAAUGUGACUGACGGGAACAAUUCUUAAACUGAUUAACUAGCUGUAAUAUAGUUUUGUGAAUUUAUUGCACUGAUGUUGUACCUUGUGGUAUAUCUGUCCCUAUUAAAU	0.463
AGAGGCUCUGUUUUCCACUGAAGCUUUGUUGGAGAAAGAGAAUAUGAAAAUUACACAUUUUAUAAUUUUUAGAUGAGAAAAUACCACUAGCAGAAUAGCUUUGUGCUAUU	0.779
AUAUAUUUGCAUGUUCACUGACCCAGCCUGAGCUCUCCCCAGCCUCGUGGGUGGUGACUUUUCCUGCAGGGCGCACGCCCUGCUGCAGCCCCCUCCCCCGCAGCCCGGAA	5.53
CUCUACUCUUGCUCAAGAAGUAAUACGACAAUCAGAAUACAAACCAGUAAGGCAACACGAAUAAACUAAGAAAAAGGUAAGAACUGUCUCAAAAACGAAAGCACACCACC	0.514
GGAGGAGUAGGAAGACCCAGCCCUAUUUGACUGGGGAGAGGAGGAUCUGGAGUCCUUCAUGCCCAGGUCUGGAACCCAGGUUCUGACCCCAGGGCCCCACCCUGGGCUGG	0.226
CCUCUCCCAACUAUAAAACUAGGUGCUGCAGCCCCUGGGACCAGGCACCCCCAGAAUGACCUGGCCGCAGUGAGGCGGAUUGAGAAGGAGCUCCCAGGAGGGGCUUCUGG	0.554
AUUGCUCUGUAGACCACGCUGGCUUCGAACUCACAGAGAUCUGUAUUGUCUCUGCCUCCUGAGUGCUGAGAUUAGAGGUUGUGUGCCAUCACCUCUGGGUACUUUUUUAU	0.557

Study 2
Target: Interferon regulatory factor 5, full length, phosphomimetic (IRF5, Homo sapiens, UniProt Q13568-2, residues 1-514, K96S/S451D/S453D/S456D/S462D)
Method: protein-binding microarray
Form: double-stranded DNA, one strand shown
Matrix: in vitro
Concentration: 250 nM
Notes: 60-bp whole probe
With: salmon DNA 0.4 mg/ml
Relative to: random background probes
Direction: higher = stronger binding
Shared flanks, not repeated: GCCTAGCAC … GTCTTGATTCGCTTGACGCTGCTG
Oligonucleotide	log fluorescence [z-score]
GAAGATTTCGGGTATCGAGACGTGCTA	4.84
AGATTTATCAAATGTGGGATTGTGCTA	0.0616
TTAGATCTCAGTATCGATTAGTGCTAG	6.68
GACGGTATCCTACTGCTGCCGTGCTAG	-0.259
TCATTTTTGCTTTCCTTACTGTGCTAG	2.04
TCTCTTTTTGCTTTCTTTTAGTGCTAG	2.98
GACGATATCTGGTTTCGAGACGTGCTA	4.16
GGTTTTCTGGTTCCCATTCCGTGCTAG	2.01
AAGGGTTAAAATTTTGCTTCGTGCTAG	-0.0933
GACGAAATCGGGTTTCGAGACGTGCTA	2.84
GACGGTTTCGGAGTGGGGACGTGCTAG	3.73
TTAGGTTTCGGACTGGGGTAGTGCTAG	5.13
GACGATCTTAGTCTCGAGACGTGCTAG	0.0639
TTAGATATTAGTATCGATTAGTGCTAG	8.02
GACGGTATCGACTATCGGGAAGTGCTA	4.5
ACCACTTTTATTTTCAGTATGTGCTAG	3.86
GACGAACTGAGACTGGCGACGTGCTAG	-0.552
GGCGGTTTCGACTTTCGGGACGTGCTA	8.1

Study 3
Target: Histone acetyltransferase KAT6A, both winged helices, GST fusion (KAT6A, Homo sapiens, UniProt Q92794, residues 1-181)
Method: protein binding microarray
Form: double-stranded DNA, one strand shown
Matrix: in vitro
Concentration: not given
Notes: 8-mer, flanks averaged, mean of 2 arrays, mostly near background
Relative to: not given
Direction: higher = stronger binding
Residues (chain): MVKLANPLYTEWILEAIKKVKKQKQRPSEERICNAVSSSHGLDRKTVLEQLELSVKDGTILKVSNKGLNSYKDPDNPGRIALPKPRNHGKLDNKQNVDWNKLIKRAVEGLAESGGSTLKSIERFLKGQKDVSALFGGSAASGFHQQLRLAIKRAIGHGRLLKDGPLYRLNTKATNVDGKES
Oligonucleotide	E-score
GACTACGC	0.147
AGACACTG	-0.143
CCATGTTA	-0.0708
CCTTTGCG	0.128
CGTACGGC	0.318
CGTGGTTA	0.0067
CATGGACG	0.113
AGGCGAAT	-0.0623
GCAAATAA	0.0069
CCGAGTTC	0.0402
ATTTTAAA	-0.0878
GCTGGTAA	-0.0457
AATGAGTG	-0.17
CATTCCAG	-0.241
AGTGCGAC	0.2
AGCGGTCG	0.213
AAAAGTTG	-0.107
AACCACAC	-0.0437
CATACACG	-0.0185
CAATGCGG	0.136
GTTTATGA	-0.0075
CGAAGGCG	0.162
ATAACCTA	-0.115

Study 4
Target: Prothrombin, mature alpha-thrombin (F2, Homo sapiens, UniProt P00734)
Method: aptamer microarray, sandwich
Form: DNA with 2'F-ANA
Matrix: in vitro
Concentration: 200 nM
Notes: whole 15-mer aptamer, many near background
With: Cy3 exosite-II aptamer, 400 nM
Direction: higher = stronger binding
Oligonucleotide: GGTTGGTGTGGTTGG
Modification	mean fluorescence intensity
2'F-ANA at 1 3 7 9 10 14 15	59.9 a.u.
2'F-ANA at 1 3 6 7 9 10 11 13 14 15	76.2 a.u.
2'F-ANA at 1 2 3 5 6 8 9 10 11 12 13	51.9 a.u.
2'F-ANA at 1 4 5 6 10 13 15	72.5 a.u.
2'F-ANA at 1 2 6 7 11 12 13 14	60.2 a.u.
2'F-ANA at 1 2 4 5 6 10 11 13 14 15	51.1 a.u.
2'F-ANA at 4 7 8 10 11 12 13 15	96.7 a.u.
2'F-ANA at 1 3 9 12 13	435 a.u.
2'F-ANA at 2 4 6 7 11 12 14	131 a.u.
2'F-ANA at 1 3 9 10 13 14 15	118 a.u.
2'F-ANA at 2 3 5 10 13 15	50.7 a.u.
2'F-ANA at 1 2 7 8 9 11 12 13 14 15	66.4 a.u.
2'F-ANA at 1 2 3 4 5 6 7 8 10 11 12 15	99.1 a.u.
2'F-ANA at 6 8 9 12 14 15	213 a.u.
2'F-ANA at 1 2 3 5 6 7 8 10 13	56.4 a.u.
2'F-ANA at 2 4 5 6 8 13 15	52.3 a.u.
2'F-ANA at 3 9 10 12 14	480 a.u.
2'F-ANA at 1 2 3 4 7 8 10 11 12	78.7 a.u.
2'F-ANA at 2 3 4 5 6 7 8 9 10 14 15	55.8 a.u.
2'F-ANA at 1 3 4 5 7 8 10 11 12 15	48.8 a.u.
2'F-ANA at 3 6 9 13 14	497 a.u.
2'F-ANA at 1 2 3 6 7 13 15	137 a.u.

Repeated from above (study 4):
Modification	mean fluorescence intensity
2'F-ANA at 2 4 6 7 11 12 14	131 a.u.
2'F-ANA at 1 3 9 10 13 14 15	118 a.u.
2'F-ANA at 2 3 5 10 13 15	50.7 a.u.
2'F-ANA at 1 2 7 8 9 11 12 13 14 15	66.4 a.u.
2'F-ANA at 1 2 3 4 5 6 7 8 10 11 12 15	99.1 a.u.
2'F-ANA at 6 8 9 12 14 15	213 a.u.
2'F-ANA at 1 2 3 5 6 7 8 10 13	56.4 a.u.
2'F-ANA at 2 4 5 6 8 13 15	52.3 a.u.
2'F-ANA at 3 9 10 12 14	480 a.u.
2'F-ANA at 1 2 3 4 7 8 10 11 12	78.7 a.u.
2'F-ANA at 2 3 4 5 6 7 8 9 10 14 15	55.8 a.u.
2'F-ANA at 1 3 4 5 7 8 10 11 12 15	48.8 a.u.
